Published values gathered from unrelated publications.
Parts stem from different laboratories: compare values within a part only.

Series 1 — technique: universal PBM; form: double-stranded DNA, one strand shown; medium: in vitro; tested at: not given; direction: higher = stronger binding; quantity: E-score
Target: Sal-like protein 4, full length isoform B (SALL4, Homo sapiens, UniProt Q9UJQ4-2, residues 1-616)
Notes: 8-mer, flanks averaged, mean of replicates
GTAAAGCA: 0.111
CAGGAAGG: -0.162
CCGCGATA: 0.00502

Series 2 — technique: protein binding microarray; form: double-stranded DNA, one strand shown; medium: in vitro; tested at: not given; relative to: not given; direction: higher = stronger binding; quantity: E-score
Target: Histone acetyltransferase KAT6A, both winged helices, GST fusion (KAT6A, Homo sapiens, UniProt Q92794, residues 1-181)
Notes: 8-mer, flanks averaged, mean of 2 arrays, mostly near background
Residues (chain): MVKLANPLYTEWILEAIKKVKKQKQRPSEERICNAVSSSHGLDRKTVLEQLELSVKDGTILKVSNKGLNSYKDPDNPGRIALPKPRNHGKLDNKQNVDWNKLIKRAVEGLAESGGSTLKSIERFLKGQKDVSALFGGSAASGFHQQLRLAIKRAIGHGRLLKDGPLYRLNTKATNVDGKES
ACTGTCTG: -0.0877
AGGACTGG: -0.194
AGAGCCTG: -0.174
CCTATATC: -0.0175

Further values, each from its own experiment
IRF7 S471D/S472D/S475D/S476D/S477D/S483D/S484D/S487D full length, phosphomimetic: Interferon regulatory factor 7, full length, phosphomimetic (IRF7, Homo sapiens, UniProt Q92985, residues 1-503, S471D/S472D/S475D/S476D/S477D/S483D/S484D/S487D)
Sequence of UniProt Q92985 (whole entry, unmodified, looked up): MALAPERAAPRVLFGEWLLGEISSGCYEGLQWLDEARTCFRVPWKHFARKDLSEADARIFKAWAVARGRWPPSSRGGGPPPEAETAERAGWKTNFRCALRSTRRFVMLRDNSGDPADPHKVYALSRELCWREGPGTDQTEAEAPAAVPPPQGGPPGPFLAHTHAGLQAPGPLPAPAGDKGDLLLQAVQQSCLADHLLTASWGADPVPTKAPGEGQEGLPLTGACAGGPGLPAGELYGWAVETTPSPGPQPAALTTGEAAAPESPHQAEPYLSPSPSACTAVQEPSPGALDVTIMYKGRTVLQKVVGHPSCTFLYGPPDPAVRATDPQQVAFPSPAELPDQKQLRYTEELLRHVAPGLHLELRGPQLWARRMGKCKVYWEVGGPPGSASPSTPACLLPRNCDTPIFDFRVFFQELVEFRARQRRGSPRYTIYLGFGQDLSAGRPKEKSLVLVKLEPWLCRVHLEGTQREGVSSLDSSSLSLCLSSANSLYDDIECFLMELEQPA
GCCTAGCACTTAGGTCTCGGTCTAGGTTAGTGCTAGGTCTTGATTCGCTTGACGCTGCTG — fitted relative affinity (IRF7 S471D/S472D/S475D/S476D/S477D/S483D/S484D/S487D full length, phosphomimetic; protein-binding microarray; double-stranded DNA, one strand shown, in vitro; 2200 nM top, 60-bp whole probe, with: salmon DNA 0.4 mg/ml; relative to: random background probes, higher = stronger binding): 0.311 z-score
PhoQ, residues 284 288 289 292 302 303 AMDMFI — fold induction (PhoP, residues 12 14 15 18 19 SGWQI (Escherichia coli, UniProt P23836); Sort-seq, refers to: YFP reporter; E. coli; PhoQ-PhoP variant library, with: 10 µM Mg2+; relative to: high Mg2+ state, higher = stronger signaling): 1.16
GCCTAGCACGACGATTGCGGGTTTCGAGACGTGCTAGTCTTGATTCGCTTGACGCTGCTG — fitted relative affinity (IRF7 S471D/S472D/S475D/S476D/S477D/S483D/S484D/S487D full length, phosphomimetic; protein-binding microarray; double-stranded DNA, one strand shown, in vitro; 2200 nM top, 60-bp whole probe, with: salmon DNA 0.4 mg/ml; relative to: random background probes, higher = stronger binding): 1.89 z-score

Repeated from above (further values, each from its own experiment):
PhoQ, residues 284 288 289 292 302 303 AMDMFI — fold induction (PhoP, residues 12 14 15 18 19 SGWQI (Escherichia coli, UniProt P23836); Sort-seq, refers to: YFP reporter; E. coli; PhoQ-PhoP variant library, with: 10 µM Mg2+; relative to: high Mg2+ state, higher = stronger signaling): 1.16
GCCTAGCACGACGATTGCGGGTTTCGAGACGTGCTAGTCTTGATTCGCTTGACGCTGCTG — fitted relative affinity (IRF7 S471D/S472D/S475D/S476D/S477D/S483D/S484D/S487D full length, phosphomimetic; protein-binding microarray; double-stranded DNA, one strand shown, in vitro; 2200 nM top, 60-bp whole probe, with: salmon DNA 0.4 mg/ml; relative to: random background probes, higher = stronger binding): 1.89 z-score
